Published values gathered from unrelated publications.
A part holds a random share of what one study measured.

Series 1
Target: Sal-like protein 4, full length isoform A (SALL4, Homo sapiens, UniProt Q9UJQ4, residues 1-1053)
UniProt Q9UJQ4, sequence (whole entry, looked up): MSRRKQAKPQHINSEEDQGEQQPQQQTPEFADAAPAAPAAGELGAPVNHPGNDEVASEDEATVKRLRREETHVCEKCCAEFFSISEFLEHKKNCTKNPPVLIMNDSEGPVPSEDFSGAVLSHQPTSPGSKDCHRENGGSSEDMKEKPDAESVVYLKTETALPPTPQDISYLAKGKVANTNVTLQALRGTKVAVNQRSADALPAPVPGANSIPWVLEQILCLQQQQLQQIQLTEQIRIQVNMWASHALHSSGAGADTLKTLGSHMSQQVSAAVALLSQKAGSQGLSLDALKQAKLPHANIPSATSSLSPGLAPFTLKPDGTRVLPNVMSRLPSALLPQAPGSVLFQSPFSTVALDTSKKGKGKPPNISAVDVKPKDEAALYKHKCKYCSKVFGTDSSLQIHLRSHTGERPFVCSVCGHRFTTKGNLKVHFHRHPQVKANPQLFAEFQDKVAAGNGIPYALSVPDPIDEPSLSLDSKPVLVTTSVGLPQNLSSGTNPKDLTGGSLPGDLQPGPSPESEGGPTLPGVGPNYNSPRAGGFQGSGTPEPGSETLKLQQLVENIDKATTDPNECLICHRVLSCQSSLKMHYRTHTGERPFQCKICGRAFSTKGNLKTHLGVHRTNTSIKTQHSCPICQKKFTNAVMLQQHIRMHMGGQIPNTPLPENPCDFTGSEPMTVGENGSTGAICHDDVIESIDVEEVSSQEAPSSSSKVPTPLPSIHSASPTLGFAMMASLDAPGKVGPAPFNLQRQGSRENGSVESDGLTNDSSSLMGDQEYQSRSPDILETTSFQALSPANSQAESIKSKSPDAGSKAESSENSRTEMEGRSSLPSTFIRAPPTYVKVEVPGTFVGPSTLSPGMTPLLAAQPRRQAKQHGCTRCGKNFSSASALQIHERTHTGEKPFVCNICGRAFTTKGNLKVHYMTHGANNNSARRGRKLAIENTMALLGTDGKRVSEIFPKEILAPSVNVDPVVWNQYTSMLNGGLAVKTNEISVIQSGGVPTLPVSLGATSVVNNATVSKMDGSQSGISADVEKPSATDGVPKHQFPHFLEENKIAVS
Technique: universal PBM
Form: double-stranded DNA, one strand shown
Sample: in vitro
Concentration: 600 nM
Notes: 8-mer, flanks averaged, mean of replicates
Direction: higher = stronger binding
The E-score of `CAGGAGCA` is reported as -0.121.
For `TATTCTCA`, the E-score was 0.21.
For `AATGGGAT`, the E-score was 0.0577.
`CCCTCACG` has an E-score of -0.342.
The E-score of `ACTCCCAA` is reported as 0.0511.
`GGCGCAAA` gave an E-score of -0.157.
With `CCGAGTAC` the E-score was -0.176.
`ATAGATTG` gave an E-score of 0.226.
The E-score of `AATTTAGC` is reported as 0.192.
The E-score of `CAGAACAC` is reported as -0.0947.
`AGCTCATC` has an E-score of -0.208.
For `CAACCCAA`, the E-score was -0.00186.
For `AATACTAA`, the E-score was 0.3.
`ATTCAGGG` gave an E-score of -0.0474.

Series 2
Target: RNA binding protein fox-1 homolog 2, RRM domain, GST-SBP tag (RBFOX2, Homo sapiens, UniProt O43251-10, residues 100-194)
Technique: RNA Bind-n-Seq
Form: RNA
Sample: in vitro
Concentration: 365 nM
Notes: natural RNA segment, single round, ends assumed
Reference: no-protein control
Direction: higher = stronger binding
Constant ends, left off below: GGGAGUUCUACAGUCCGACGAUC … UGGAAUUCUCGGGUGCCAA
Residues (chain): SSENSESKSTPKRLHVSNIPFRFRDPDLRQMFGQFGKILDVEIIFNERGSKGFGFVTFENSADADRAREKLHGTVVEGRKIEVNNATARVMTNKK
`ACUCAUCCAAUGCAGAGUCUCGCUCCUAGCUGCCUACCCGAGAUCCCUUGCUUCAACCUCCCCAGGUGGGGGACCUGGCCUCUGCCUAAAUGCUUCUGGAGACGGAAACA`: “RBNS enrichment (R)” 0.197.
Under “RBNS enrichment (R)”, `GUGAAUGACAGCCUGCCACUCCCUGCCACAGGACUCCCUGUGAGCUGUACAGAGGACCAUGGAGCCUUCCUGAAAGGUCUCGGCCAUCUGUUCUUCUCCACCUCCUCAUG` is recorded as 0.687.
`UCUUUCCUGCAGUGCUGUCCCCAACCCCGUGUAGCUCUGUUAUUACCAUAGGGGACUUGGUUUUGGACUCUGAUGAGGAAGAAAAUAACCAGAAGGAAGGGAAGGAGUUU` — result for “RBNS enrichment (R)”: 0.366.
For `GUAGUUCUCAGCAAAACUUUGUCAGUUGGCACUGUUUACAAGUCUGUUAGCUGCAUAAGCUCAAUAAAAAGUUGGUCUGGGCAUUGCAUCCCCUCUGACAGACCGAUAGC`, “RBNS enrichment (R)” read 0.579.
For `UCCGCCCUUUCCCUGGGGAGCCAGACCCCACCCAGAAAUCCCAAGGUUCAAGGUCUUAUUUAACAAACCAGAAAAAUGCAGGCCAAGCCCUAAUUCAUCAUAUUGGUUUA`, “RBNS enrichment (R)” read 0.329.
Under “RBNS enrichment (R)”, `GUAGUCUGGUUGUGAAGAACACUGAGUCAGUUGAUGGUGUGUCUUGUCCUCCAGACCAGGCAGCAACAUGGUAUUUAUUUUAAUCAUUAAAGUACAACAUGAGUAGUACA` is recorded as 0.362.
For `AACAGUCUAGUUAUAUUCCCUCUUCUUGCAAAGCACAAGCUGGGACCGCGAGCACAUUGCAGCCCCAACGGUGGCCCAUCUUCAGCGGAGAGCGAGAACCAUUUUGGAAA`, “RBNS enrichment (R)” read 0.172.
`CUGUAGUGGGGUUCUAGGCAUCUCUGUACUUUGCUUGCUCAUAUGCAUGUAGUCACUUUAUAAGUCAUUGUAUGUUAUUAUAUUCCGUAGGUAGAUGUGUAACCUCUUCA`: “RBNS enrichment (R)” 2.47.
`ACACCCUUAAGUAUUUAUAUUCUUUAAUUAUCUGACCCACAAGGAGGGACCUCGGCUUCUUGAGGCAAAAGGCACUAGUACUUAAAGUACUUUCUGUGGCGUGACCAAUC` — result for “RBNS enrichment (R)”: 0.264.
`CUUGUGUAGAUAUUUUUAAGUUCUUUGGCUAAGUCCUCUCCUAACUGCCUGUCCUCUGGUUAGGCCCCUCCCUCUCCACUAGUGGUGAAUGCAUGUGUCUGUCUGAUCAG`: “RBNS enrichment (R)” 39.9.
`UGAAUAAAUAAAUGGUAUUUUUUUUAAAUGUCAGCUCUUCCAUAAUUCAGUCUAGAUAGGAGAUUAUUUAACUGAAGAUCUUGGUGAGUGUCAUUUUUUUUUCUUUUUUC`: “RBNS enrichment (R)” 0.786.
Under “RBNS enrichment (R)”, `UGGGAAAACUGUGUGUUAUAUUCUGUUGCAGGUAGUCUGGCUGUAUUUGGAAAGUUGCAAAGAAGGUAGAUUUGGGGGCAGGAAAAACAACCCUUUUCACAGUGUACUGU` is recorded as 0.649.

Series 3
Target: Fragile X messenger ribonucleoprotein 1, C-terminal low-complexity region (Fmr1, Mus musculus, UniProt P35922)
Technique: RNA Bind-n-Seq
Form: RNA
Sample: in vitro
Concentration: 200 nM
Notes: whole 134-nt RNA, ends assumed
With: 150 mM KCl
Reference: input library
Direction: higher = stronger binding
Constant ends, left off below: GGGAGUUCUACAGUCCGACGAUC … UGGAAUUCUCGGGUGUCAAGG
For `CCUGUGCUACACAUCGUAUGUACCGAAUCGGGGCCCCCCGGCCCCCCGGGGCCCCCCGGGGAAAGUAUUAUGUUACGCCGUUCGGAUCUG`, the log2 enrichment was -0.544.
With `CUCAAGUCCUGUGCUACACAUCGUAUGUACCGAAUCGGGCCGGCCGGGGCCGGAAAGUAUUAUGUUACGCCGUUCGGAUCUGCACUUCCA` the log2 enrichment was -0.0914.
`UCAAGUCCUGUGCUACACAUCGUAUGUACCGAAUCGGGGCCGGGGCCGGCCGGGGAAAGUAUUAUGUUACGCCGUUCGGAUCUGCACUUC` gave a log2 enrichment of -0.339.
With `CACAGACAACACGCACCCACACAGACACAGAGGGAAGGGGUUGGGAUGGGGACAGGGUGCACAGGAGGGCGGGGUAGGACCCCAGCCCCU` the log2 enrichment was 1.15.
The log2 enrichment of `UCAAGUCCUGUGCUACACAUCGUAUGUACCGAAUCGGCCGGGGCCGGGCCGGGGAAAGUAUUAUGUUACGCCGUUCGGAUCUGCACUUCC` is reported as -0.0756.
`UGGCCCUGGUGGCAUGCGGGGAGGAAGAGGUGGCCUCAUGGAUCGUGGUGGUCCCGGUGGAAUGUUCAGAGGAGGCCGUGGUGGAGACAG` gave a log2 enrichment of -0.116.
With `AAGUCCUGUGCUACACAUCGUAUGUACCGAAUCGGGGAAAGGGGAGGGGUUUGGGGAAAGUAUUAUGUUACGCCGUUCGGAUCUGCACUU` the log2 enrichment was 0.613.
`UUUAGUGACUUUGGAUGAAGUAACUGAAGAGGAUGAAGACUCUCUGGCGGAUUUUAACAACCUUAAAGAAGAGCUUAAUUUUGUUACUGU` gave a log2 enrichment of -1.62.
The log2 enrichment of `CUCAAGUCCUGUGCUACACAUCGUAUGUACCGAAUCGGGGCGGGCGGGGCGGGAAAGUAUUAUGUUACGCCGUUCGGAUCUGCACUUCCA` is reported as 1.42.
With `GCAGGAAGUAAAAACAAAUGGAAAUGCUUCGGAUAGUGGCAGGGGUGGGGGUUGCUAAGGAAAGGAAAGGAUGGGAGUGGGUAAAGAGUU` the log2 enrichment was 0.0647.
With `AUCAUGCAGGUGGGCAUCUUUGGGAAGUGGGGCAAGGGGGGGAUAGGGAGGGGGGUAACACUUUGGGAACAGGUGGUCCCAGGUCGUUUC` the log2 enrichment was 0.636.
`UUAAAGAAGAGGGUGUGCGGGACGUCCUUAAGGAUGUACUGCUCCCAUGGUACAAUGCCUAUCGCUUCUUAAUCCAGAACGUUCUGAGGC` has a log2 enrichment of -1.45.
`UCCUGUGCUACACAUCGUAUGUACCGAAUCGGGGUUUGGGGAAAAAGGGGAAAAAGGGGAAAGUAUUAUGUUACGCCGUUCGGAUCUGCA` gave a log2 enrichment of 0.588.
`UGCCCAGCUCAUGCUGGACCACCUGAAGAACAGUGCUCCCAGCAAGCGAGAGAUUGCCCAGCUCAAGAACCAGGUAUCCACAGAGAGCAC` gave a log2 enrichment of -0.904.

Further values, each from its own experiment
`PhoQ, residues 284 288 289 292 302 303 AANNSF` has a fold induction of 16.3 (PhoP, residues 12 14 15 18 19 QYFSL (Escherichia coli, UniProt P23836); Sort-seq, item: YFP reporter; E. coli; PhoQ-PhoP variant library, with: 10 µM Mg2+; reference: high Mg2+ state, higher = stronger signaling).

Repeated from above (series 2):
Under “RBNS enrichment (R)”, `GUGAAUGACAGCCUGCCACUCCCUGCCACAGGACUCCCUGUGAGCUGUACAGAGGACCAUGGAGCCUUCCUGAAAGGUCUCGGCCAUCUGUUCUUCUCCACCUCCUCAUG` is recorded as 0.687.
Under “RBNS enrichment (R)”, `UGGGAAAACUGUGUGUUAUAUUCUGUUGCAGGUAGUCUGGCUGUAUUUGGAAAGUUGCAAAGAAGGUAGAUUUGGGGGCAGGAAAAACAACCCUUUUCACAGUGUACUGU` is recorded as 0.649.
`CUGUAGUGGGGUUCUAGGCAUCUCUGUACUUUGCUUGCUCAUAUGCAUGUAGUCACUUUAUAAGUCAUUGUAUGUUAUUAUAUUCCGUAGGUAGAUGUGUAACCUCUUCA`: “RBNS enrichment (R)” 2.47.
For `AACAGUCUAGUUAUAUUCCCUCUUCUUGCAAAGCACAAGCUGGGACCGCGAGCACAUUGCAGCCCCAACGGUGGCCCAUCUUCAGCGGAGAGCGAGAACCAUUUUGGAAA`, “RBNS enrichment (R)” read 0.172.
Under “RBNS enrichment (R)”, `GUAGUCUGGUUGUGAAGAACACUGAGUCAGUUGAUGGUGUGUCUUGUCCUCCAGACCAGGCAGCAACAUGGUAUUUAUUUUAAUCAUUAAAGUACAACAUGAGUAGUACA` is recorded as 0.362.
`CUUGUGUAGAUAUUUUUAAGUUCUUUGGCUAAGUCCUCUCCUAACUGCCUGUCCUCUGGUUAGGCCCCUCCCUCUCCACUAGUGGUGAAUGCAUGUGUCUGUCUGAUCAG`: “RBNS enrichment (R)” 39.9.
For `UCCGCCCUUUCCCUGGGGAGCCAGACCCCACCCAGAAAUCCCAAGGUUCAAGGUCUUAUUUAACAAACCAGAAAAAUGCAGGCCAAGCCCUAAUUCAUCAUAUUGGUUUA`, “RBNS enrichment (R)” read 0.329.
